Results pooled from the literature.
Every numbered part comes from another study and shows a few of its results, in no order.

Set 1
Target: Replicase polyprotein 1ab, nsp13 helicase (rep, Severe acute respiratory syndrome coronavirus 2, UniProt P0DTD1)
Action: inhibitor
Tested at: 20 µM
| SMILES | inhibition [%] |
| --- | --- |
| COCCCN1CCC(NC(=O)c2cc(Cl)c(N)c3c2OCC3)CC1 | 5.04 |
| CCCCC#Cc1nc(NC)c2ncn([C@@H]3O[C@H](CO)[C@@H](O)[C@H]3O)c2n1 | -1.91 |
| CC1(C)Oc2ccc(C#N)cc2[C@@H](OC2=CC(=O)CC2)[C@@H]1O | -5.97 |
| CNC(=O)c1c(F)cccc1Nc1nc(Nc2cc3c(ccn3C(=O)CN(C)C)cc2OC)nc2[nH]ccc12 | 14.9 |
| NC[C@@H]1O[C@H](C23CC4CC(CC(C4)C2)C3)Cc2c1ccc(O)c2O | -3.68 |
| CC1(CN2CCC(n3c(=O)[nH]c4ccccc43)CC2)OCc2ccccc2-n2cccc21 (stereo not shown) | -1.96 |
| O=C1N[C@@H]2[C@@H](O)[C@@H](O)[C@H](O)[C@@H](CO)N2C1=O | 3.08 |
| CCOC(=O)[C@H](Cc1ccccc1)NC(=O)c1cc(Cl)c(OCCN2CCN(C)CC2)c(Cl)c1O | -1.04 |
| COc1ccccc1OCC(O)CN1CCN(CC(=O)Nc2c(C)cccc2C)CC1 (stereo not shown) | 2.99 |
| COCC1=C(C(=O)O)N2C(=O)[C@@H](NC(=O)/C(=N\OC)c3csc(N)n3)[C@H]2SC1 | 7.5 |
| O=S(=O)(c1cccc2c(O)nccc12)N1CCCNCC1 | -0.98 |
| COc1cc2c(cc1OC)[C@@H](Cc1cc(OC)c(OC)c(OC)c1)[N+](C)(CCCOC(=O)CC/C=C/CCC(=O)OCCC[N+]1(C)CCc3cc(OC)c(OC)cc3[C@H]1Cc1cc(OC)c(OC)c(OC)c1)CC2 (stereo partly shown) | 4.91 |
| C=CCOC(Cn1ccnc1)c1ccc(Cl)cc1Cl (stereo not shown) | 2.65 |
| CN(C)CC[C@@]1(c2ccc(Cl)cc2)Cc2ccccc2C(=O)O1 (racemic) | -0.19 |
| O=C(O)CCCNC(=O)c1cccnc1 | 2.23 |
| CN1CCN(Cc2ccc(Nc3ncc(Cl)c(Nc4ccccc4S(=O)(=O)N(C)C)n3)cc2)CC1 | -1.49 |
| CCNC(=O)[C@H]1O[C@@H](n2cnc3c(N)nc(NCCc4ccc(CCC(=O)O)cc4)nc32)[C@H](O)[C@@H]1O | 1.57 |
| O=C(NCCO)c1cccc(-c2cc(Nc3ccc(OC(F)(F)F)cc3)ncn2)c1 | 0.57 |
| Cc1cccc(C)c1NC(=O)c1ccccc1C(=O)O | 4.83 |
| COc1cc(C(=O)NC2CCCNC2)cc(OC)c1OC (stereo not shown) | 2.79 |
| CN(C)c1ccc(/C=C2\CCCN=C2c2cccnc2)cc1 | 12.6 |
| C[C@H]1COc2c(C3(N)CC3)c(F)cc3c(=O)c(C(=O)O)cn1c23 | 2.69 |
| O=C(O)CC[C@H]1CC[C@@](c2cc(F)ccc2F)(S(=O)(=O)c2ccc(Cl)cc2)CC1 | -0.74 |
| CC(CNS(=O)(=O)C(C)C)c1ccc(-c2ccc(C#N)cc2)cc1 (stereo not shown) | 9.62 |

Set 2
Cell line: HEK-293T-ACE2
Tested at: concentration not given
Baseline: vehicle
| SMILES | cell number [%] |
| --- | --- |
| CS(=O)(=O)c1ccc(C(=O)Nc2ccc(Cl)c(-c3ccccn3)c2)c(Cl)c1 | 98.2 |
| CCOc1cc([C@@H](CS(C)(=O)=O)N2C(=O)c3cccc(NC(C)=O)c3C2=O)ccc1OC | 94.1 |
| CO[C@H]1C[C@@H]2CC[C@@H](C)[C@@](O)(O2)C(=O)C(=O)N2CCCC[C@H]2C(=O)O[C@H]([C@H](C)C[C@@H]2CC[C@@H](OC(=O)C(C)(CO)CO)[C@H](OC)C2)CC(=O)[C@H](C)/C=C(\C)[C@@H](O)[C@@H](OC)C(=O)[C@H](C)C[C@H](C)/C=C/C=C/C=C/1C | 88.4 |
| C=C1c2c(Cl)ccc(O)c2C(=O)C2=C(O)[C@]3(O)C(=O)C(C(N)=O)=C(O)[C@@H](N(C)C)[C@@H]3[C@@H](O)[C@H]12.O=C(O)c1cc(S(=O)(=O)O)ccc1O | 99.7 |

Set 3
Target: Transcriptional repressor CTCF (CTCF, Homo sapiens, UniProt P49711, residues 1-727, full length assumed)
Chain of UniProt P49711 (whole entry, looked up): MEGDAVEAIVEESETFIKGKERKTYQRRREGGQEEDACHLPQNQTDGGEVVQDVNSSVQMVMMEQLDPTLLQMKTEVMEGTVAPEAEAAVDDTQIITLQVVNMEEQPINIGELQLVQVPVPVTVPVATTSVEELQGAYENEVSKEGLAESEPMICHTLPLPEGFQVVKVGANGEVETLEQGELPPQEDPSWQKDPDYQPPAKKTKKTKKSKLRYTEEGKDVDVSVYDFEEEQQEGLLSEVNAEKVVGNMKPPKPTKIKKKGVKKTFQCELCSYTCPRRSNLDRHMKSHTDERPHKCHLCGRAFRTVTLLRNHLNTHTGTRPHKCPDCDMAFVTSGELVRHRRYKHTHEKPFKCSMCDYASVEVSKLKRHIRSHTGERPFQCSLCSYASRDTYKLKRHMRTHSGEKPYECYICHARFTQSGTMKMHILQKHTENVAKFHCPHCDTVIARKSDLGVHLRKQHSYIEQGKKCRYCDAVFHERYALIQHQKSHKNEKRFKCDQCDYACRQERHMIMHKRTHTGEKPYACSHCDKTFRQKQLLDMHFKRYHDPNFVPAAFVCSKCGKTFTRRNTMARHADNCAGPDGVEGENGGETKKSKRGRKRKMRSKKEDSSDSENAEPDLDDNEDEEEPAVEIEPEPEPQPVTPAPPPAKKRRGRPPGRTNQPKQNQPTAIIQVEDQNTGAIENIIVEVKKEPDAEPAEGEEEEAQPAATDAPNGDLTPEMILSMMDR
Method: protein-binding microarray
Molecule type: double-stranded DNA, one strand shown
Matrix: in vitro
Tested at: not given
Setting: k-mer, scored over probes, only values ≥0.25
Reading: higher = stronger binding
| Oligonucleotide | E-score |
| --- | --- |
| ACATACTC | 0.251 |
| CGCAAGTA | 0.292 |
| GCGCGCAC | 0.363 |
| CCTTGTTA | 0.292 |
| AGCAAATA | 0.271 |
| AGTATGAA | 0.251 |
| TACAGAAA | 0.282 |
| AATTGCGC | 0.373 |

Set 4
Target: Replicase polyprotein 1ab, main protease (rep, Severe acute respiratory syndrome coronavirus 2, UniProt P0DTD1)
Observed: enzyme activity
Action: inhibitor
Tested at: 20 µM
Setting: primary screen
| SMILES | inhibition |
| --- | --- |
| CCOc1ccc(Nc2nc(-c3c(C)nc4ccccn34)cs2)cc1 | 76% |
| O=C(O)CCCCCCCCCCCCCCc1ccc(I)cc1 | 95% |
| Oc1c(I)cc(I)c2cccnc12 | 25.9% |
| NCCc1cc(O)c(O)cc1O | 82.3% |
| CC[N+](C)(CC)CCC[n+]1c(-c2ccccc2)c2cc(N)ccc2c2ccc(N)cc21 | 82.9% |

Set 5
Target: RING finger protein unkempt homolog, zinc fingers 1-6, GST-SBP tag (UNK, Homo sapiens, UniProt Q9C0B0, residues 30-357)
Chain of UniProt Q9C0B0 (30-357, looked up): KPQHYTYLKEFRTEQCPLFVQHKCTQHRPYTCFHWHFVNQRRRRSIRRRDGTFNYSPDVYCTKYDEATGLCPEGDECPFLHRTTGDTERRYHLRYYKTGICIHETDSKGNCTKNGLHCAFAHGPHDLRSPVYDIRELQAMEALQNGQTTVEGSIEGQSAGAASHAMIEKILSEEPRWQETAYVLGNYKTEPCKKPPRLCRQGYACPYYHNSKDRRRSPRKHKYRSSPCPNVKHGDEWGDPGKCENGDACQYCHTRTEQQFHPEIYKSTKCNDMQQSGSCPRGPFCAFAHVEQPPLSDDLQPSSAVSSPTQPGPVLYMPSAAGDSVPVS
Method: RNA Bind-n-Seq
Molecule type: RNA
Matrix: in vitro
Tested at: not given
Setting: RNA with constant flanks, ends assumed
Baseline: input RNA pool
Reading: higher = stronger binding
Constant ends, left off below: GGGAGUUCUACAGUCCGACGAUC … CAACAGAGGAUUGAGCAUCA
| Oligonucleotide | bound/input enrichment [ratio] |
| --- | --- |
| GCAUAAAUCCACCCCUGUUUGAAAUCUAUCAAGUCUUGUUAAGCCCAACACAACAUCAUGCCGCACUUAUAGGAAUAAAAGGACUUAUGGUAUUAGAAUUACCUAAAAGAUGGGGGAAGA | 0.672 |
| CUCUGCAUUGAACUUACGUAUCCAUGCCAAGGAAUGGAAUUUCCAUCCUGAGCCAGUUCAGUCCGGUGUCAAUUGAUACUAUUUUAAUUUUUUAUGCAAUCUGAUGAGAUGAGCUCAGAU | 0.504 |
| UUCAAAGCCUUACGUCGACAGUUGCCAGUUACACGCACUAAGAUUGAUUGGAACAAGAUCCUCCGCUACAAGAUUGGCAAAGAGAUGCAGAAUGCAUAAGAUGAACAUUGCAUGACCGGA | 0.212 |
| UUUAGUGACUAUGGUAAGCUUUUGUUCAUUUGUUUCAGACUUUUUUCUCCUGUAAAAAAACCGUACUGAUUAACUUUUUUAAAAGAAAGAUUUUACUGUAAAUAUGGAUUUUUUUUUUUU | 1.52 |
| GUAGAAUUUAUUCUGUCUUUCAUUGACCACAUUGCUGGAGAUGAGGAUCACACAGAUGGAGCCGCCGCUUGUGCUGCUGGACUAAUAGGGGACUUAUGUACAGCAUUUGGGAAGGAUGUA | 0.337 |
| CUCCGUCUGCGAUGCAGGGCGGCGGCCUGUAAUCCCAGCGACCGCCAGGAGUGGCAGAAUUCCGUGACAUUUGGAAGCUUUUCAAACAUGGUUCCCUGUAGUCAUCCAUAUAUUGGUACC | 0.636 |
| CCUCGUACAAAUGGCAUGUGUUCAGUAUGCUAUAAAGAACAUCUUCAAAGACAGAACCGCCGUAAUGGUAGAAUAAGCCCACCUGCAACCUCUGUCAGUAGUCUGUCUGAAUCUUUACCA | 0.222 |
| AAAAUUUAUUUCAUGCCCUGGACUCCCUAUCGUACCGAUACUUUAAUAGAAUAUGCUUCUUCCGAAGAUUUCCAAAAUAGUCGCCAAACAACAACAUAUAAACUUCCAAAUCGAGUAGAU | 6.68 |

Repeated from above (set 1):
| SMILES | inhibition [%] |
| --- | --- |
| COc1ccccc1OCC(O)CN1CCN(CC(=O)Nc2c(C)cccc2C)CC1 (stereo not shown) | 2.99 |
| COCC1=C(C(=O)O)N2C(=O)[C@@H](NC(=O)/C(=N\OC)c3csc(N)n3)[C@H]2SC1 | 7.5 |
| O=S(=O)(c1cccc2c(O)nccc12)N1CCCNCC1 | -0.98 |
